Measurements of several laboratories.
Each line is one published result; not all experiments were run side by side.
CDC7 with DBF4: Cell division cycle 7-related protein kinase, with DBF4 (CDC7, Homo sapiens, UniProt O00311)
CDC7 with cyclin B1: Cell division cycle 7-related protein kinase, with cyclin B1 (CDC7, Homo sapiens, UniProt O00311)

CN1CCN(Cc2ccc(-c3ccc(CO[C@H]4CCC[C@@H]4NC(=O)c4cc(-c5cnn(C)c5)cnc4N)cc3)cc2)CC1 — inhibition (CDC7 with DBF4; SelectScreen kinase profiling; 0.1 µM): 1%
C=CC(=O)Nc1cc(-c2nn(C3CCN(CCNC(=O)[C@H](C)CCC45CC6CC(CC(C6)C4)C5)CC3)c3ncnc(N)c23)ccc1Oc1ccccc1 — inhibition (CDC7 (Homo sapiens, UniProt O00311); inhibitor, KiNativ profiling; biochemical; 2 µM): 14.6%
Nc1ncc(-c2cc(-c3cnn(CC(F)(F)F)c3)ncc2F)nc1C(=O)NC1CNCC(F)C1 (stereo not drawn) — remaining activity (CDC7 with DBF4; enzyme activity; 1 µM; relative to: DMSO control): 100%
CCn1cc(C(=O)O)c(=O)c2c(N)c(F)c(NC3CCCCC3)cc21 — inhibition (CDC7 with DBF4; kinase activity; 0.1 µM, together with: ATP at Km): 11%
O=C(Cc1ccc(OCc2ccccc2)cc1)NC1(C(=O)O)CCN(C(=O)c2ccc(-c3cccc(Cl)c3)cc2)CC1 — remaining activity (CDC7 with cyclin B1; kinase activity, inhibitor; 10 µM, together with: ATP at Km): 139%
NC(=O)[C@@H](O)C[C@H]1CCc2sc3ncnc(O[C@H]4CC[C@H](N5CCOCC5)CC4)c3c21 — inhibition (CDC7 with DBF4; radioisotope kinase; 10 µM): -6%
CN1CC[C@@H](COc2cnc(C#N)cc2-c2ccn3nc(NC(=O)C4CC4)cc3c2)C1 — inhibition (CDC7 with cyclin B1; inhibitor, KinaseProfiler panel; 1 µM): -21%
NC(=O)C[C@H]1CCc2sc3ncnc(O[C@H]4CC[C@H](N5CCOCC5)CC4)c3c21 — inhibition (CDC7 with DBF4; radioisotope kinase; 10 µM): -4%
C=CC(=O)N1Cc2nc(-c3cc(-c4cc(Cl)cnc4Cl)c(F)cc3F)n(-c3ccncn3)c2C1 — inhibition (CDC7 with DBF4; kinome panel; 1 µM): 2.3%

Excerpt of the above:
NC(=O)[C@@H](O)C[C@H]1CCc2sc3ncnc(O[C@H]4CC[C@H](N5CCOCC5)CC4)c3c21 — inhibition (CDC7 with DBF4; radioisotope kinase; 10 µM): -6%
